Published values from different studies.
Numbered parts are unrelated; each lists some results of a single study. Changes are numbered by the printed parent chain.

Study 1 — technique: universal PBM; form: double-stranded DNA, one strand shown; matrix: in vitro; concentration: not given; direction: higher = stronger binding
Target: Sal-like protein 4, full length isoform B (SALL4, Homo sapiens, UniProt Q9UJQ4-2, residues 1-616)
Setting: 8-mer, flanks averaged, mean of replicates
Oligonucleotide | E-score
AGGTGAGC | -0.136
GGAAGAAC | -0.0225
ACTGATAC | -0.0774
AATGACCG | -0.125
GGGAGCGA | -0.28
GACTCCCC | -0.248
CAGTAATG | 0.2
ATATCACG | 0.259

Study 2 — technique: DHFR PCA, deep sequencing; matrix: yeast; with: (+)-ABA 4.8 µM; baseline: wild-type fitted maximum; direction: higher = stronger binding
Target: ABI1, truncated, D143A, DHFR fusion (Arabidopsis thaliana)
Setting: methotrexate growth selection, single substitutions
Starting sequence: PYL1, truncated, DHFR fusion (Arabidopsis thaliana); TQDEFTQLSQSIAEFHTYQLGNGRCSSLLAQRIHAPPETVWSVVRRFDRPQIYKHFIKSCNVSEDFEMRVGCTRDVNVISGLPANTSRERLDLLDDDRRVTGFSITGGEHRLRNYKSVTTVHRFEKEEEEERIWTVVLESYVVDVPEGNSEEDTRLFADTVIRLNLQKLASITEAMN
Change | relative binding score
Y115Q | -7.28%
K54I | 4.11%
F124P | 8.2%
V142G | 15.4%
D96W | -7.96%

Study 3 — target: CCNB3, cyclin fold, Cln2 fusion (human); technique: yeast growth competition, sequencing; matrix: yeast; setting: weak parent motif; baseline: not given; direction: higher = stronger binding
Starting sequence: ORC1 docking peptide (human); PRARKRLELGNLG
Change | normalised enrichment score
PRNRKRLELGNLG [A3N] | 0.358
PRARKRLELGNLK [G13K] | 0.128
PRARKRLEPGNLG [L9P] | -0.168
PRARKRVELGNLG [L7V] | -0.398

Further values, each from its own experiment
Molecule | target | assay | test system | conditions | how to read | endpoint | result
PhoQ, residues 284 288 289 292 302 303 SLANKL | PhoP, residues 12 14 15 18 19 NQAHL (Escherichia coli, UniProt P23836) | Sort-seq, measured: YFP reporter | E. coli | PhoQ-PhoP variant library, with: 10 µM Mg2+ | baseline: high Mg2+ state, higher = stronger signaling | fold induction | 5.58
